Measurements from different studies.
Each line is one published result; not all experiments were run side by side. Values joined by “and” are separate records of one study, mostly repeats; a detail may differ.
Target: Protein kinase C epsilon type (PRKCE, Homo sapiens, UniProt Q02156)

| Compound | assay | setting | how to read | quantity | value |
| --- | --- | --- | --- | --- | --- |
| Cc1cnc2nc1Nc1cccc(c1)COC/C=C/COCc1cc(ccc1OCCN1CCOCC1)N2 | binding | 0.1 µM |  | remaining binding | 75% |
| COc1cc(Nc2nccc(-c3cnn4nc(OC)ccc34)n2)cc(C(F)(F)F)c1 | binding, competition with immobilised ligand | 1 µM |  | remaining binding | 87% |
| COCC12C(=O)NC3C4(C(OC)CC1O)C1CC5(O)C(OC)C(O)C(OC(C)=O)(C1C5OC(=O)c1ccccc1)C3(O)C(OC)C24 (centres unmarked) | kinase activity, inhibitor, ProQinase kinase profiling | 25 µM | baseline: control | remaining activity | 84% and 85% |
| C=CC(=O)N1Cc2nc(-c3cc(-c4cc(Cl)cnc4Cl)c(F)cc3F)n(-c3ccncn3)c2C1 | cell-free assay | 1 µM |  | inhibition | 5% |
| C=CC(=O)Nc1cccc(-c2cnc3[nH]cc(C(=O)NC(C)(C)C)c3n2)c1 | enzyme activity, inhibitor | 0.1 µM |  | inhibition | 11% |
| NC(=O)C[C@H]1CCc2sc3ncnc(O[C@H]4CC[C@H](N5CCOCC5)CC4)c3c21 | enzyme activity, inhibitor | 10 µM |  | inhibition | -7% |
| CCn1cc(C(=O)O)c(=O)c2c(N)c(F)c(NC3CCCCC3)cc21 | kinase activity | 0.1 µM, together with: ATP at Km |  | inhibition | 0% |
| CN1CCN(Cc2ccc(NC(=O)c3cccc(C#Cc4cnc(N)c5ncccc45)c3)cc2C(F)(F)F)CC1 | cell-free assay, competition with immobilised ligand | 50 nM |  | remaining binding | 63% |
| CNS(=O)(=O)Nc1nccc(Cc2c(C)c3ccc(Oc4ncccc4F)cc3oc2=O)c1F | cell-free assay, competition with immobilised ligand | 10 µM |  | remaining binding | 100% |
| CN1CC[C@@H](COc2cnc(C#N)cc2-c2ccn3nc(NC(=O)C4CC4)cc3c2)C1 | enzyme activity, inhibitor | 1 µM |  | inhibition | -8% |
| CC(C)=CC1OC(C)(C)C2C=C3C(=O)C(Cl)=CC(O)C3C3C(O)C4OC4C(=O)C132 (centres unmarked) | cell-free assay, competition with immobilised ligand | 10 µM |  | remaining binding | 53% |
| Cc1c[nH]c2nccc(-c3ccc(C(=O)N[C@@H]4c5c(F)cc(C(F)F)cc5C[C@@H]4O)cn3)c12 | binding, competition with immobilised ligand | 3 µM |  | remaining binding | 18% |
| C=CC(=O)N1CCCC(n2c(=O)c3ncccc3n(Cc3ccc(Oc4ccccc4)cc3)c2=O)C1 (centres unmarked) | cell-free assay, competition with immobilised ligand | 1 µM |  | remaining binding | 68% |
| Nc1ncc2c(n1)-c1c([nH]c3ccc(C4=CCOCC4)cc13)CCC2 | binding, competition with immobilised ligand | 1 µM |  | remaining binding | 85% |
| CN1CCN(Cc2ccc(-c3ccc(CO[C@H]4CCC[C@@H]4NC(=O)c4cc(-c5cnn(C)c5)cnc4N)cc3)cc2)CC1 | enzyme activity, inhibitor | 0.1 µM |  | inhibition | 11% |
| O=C=[N][Ru-4]123([n]4c5ccc(O)cc5c5c6c(c7cc(F)c[n+]1c7c54)C(=O)NC6=O)[S+]1CC[S+]2CC[S+]3CC1 (centres unmarked) | enzyme activity | 100 nM, human enzyme, together with: 10 µM ATP | baseline: untreated | remaining activity | 90% |
| COc1ccc(NC(=O)Nc2ccc3c(c2)C(=O)N(C(C)CO)CC(C)C(CN(C)Cc2ccc4c(c2)OCO4)O3)cc1 (centres unmarked) | binding, competition with immobilised ligand | 10 µM |  | remaining binding | 100% |

A few entries again:
| Compound | assay | setting | how to read | quantity | value |
| --- | --- | --- | --- | --- | --- |
| COc1cc(Nc2nccc(-c3cnn4nc(OC)ccc34)n2)cc(C(F)(F)F)c1 | binding, competition with immobilised ligand | 1 µM |  | remaining binding | 87% |
| COCC12C(=O)NC3C4(C(OC)CC1O)C1CC5(O)C(OC)C(O)C(OC(C)=O)(C1C5OC(=O)c1ccccc1)C3(O)C(OC)C24 (centres unmarked) | kinase activity, inhibitor, ProQinase kinase profiling | 25 µM | baseline: control | remaining activity | 84% and 85% |
